Measurements gathered from unrelated publications.
Parts stem from different laboratories: compare values within a part only. Substitutions count along the parent as printed.

Block 1
Target: RNA binding protein fox-1 homolog 2, RRM domain, GST-SBP tag (RBFOX2, Homo sapiens, UniProt O43251-10, residues 100-194)
Technique: RNA Bind-n-Seq
Form: RNA
Sample: in vitro
Tested at: 365 nM
Notes: natural RNA segment, single round, ends assumed
Relative to: no-protein control
Reading: higher = stronger binding
Shared flanks, not repeated: GGGAGUUCUACAGUCCGACGAUC … UGGAAUUCUCGGGUGCCAA
| Oligonucleotide | RBNS enrichment (R) |
| --- | --- |
| UGUAUUGAUGUCAACUCUGGUGCCUUAGAAGUUAGUAGUUUGGGAACCUAUCUGUAAAAUCAGAUGUUUUUUCUUUGUAGAGAAGGAUUUCUGGUGCUUUUGCUUACUAA | 0.419 |
| GACUCAGGUGGGCCCUCUGAACUUGCCUUAAACACUCACCUUCUAGUCUUGGCCAGCCAACUCUGGGAAUACAGGGGUGAAAGGGGGGAACCAGUGAAAAUGAAAGGAAG | 0.386 |
| ACGGUGCGGUAAUGACUGCCCAGGCUGCCUGAGUCUCUGACCCUCUGAGGAGUUCGAGCAGGGCAGUCAGAUUUUUAAAGUUUUGUACAGUUUUCCUUUGUAUUCACUUC | 0.452 |
| AUUAGAAGCAAUUUGGAGUAAGUGUGUUUUGAUUUAGGCAGGGUAGCUUGGGAUACCUUUUUAAAAACACCAGAUAUUAAAAUGUCUGGCAAGGUUAGAAUCAGACUAGA | 0.804 |
| GGUUGUUCCUGCUGCCAAGUGCUCUGUGACCAUGGCCUUUGCCUAGUGGAGGGAACUCAGUGGAGGAUGUGCCCAGCAGUGGCCGGGGCUGCUUCUGUAACCAAGGUCUG | 0.428 |
| AAGAUUUAGCUCACCCUUGAACUGUCCAAGUGCCCGCAGUCCCUAGACUCAUCCCCGUGGGCUAGGACAGGAGGCCACUAGUACUGAUGCCAAACCAGGCCUCCACCGAC | 0.637 |
| UCUGGGAAGGCCUUGCCCCCACGGGCUUUACCCUUUCCUGUGGGCUCUCUCCCUGACACAUUUGUUAAAAAUCAAACCUGAAUAAAACUACAAGUUUAAUAUGAAGCCCC | 0.745 |
| CGACAAUGGAUUUUUAACCAAGACAUUUUUGUUUUUGGAAAAAAAAAAAAAAUCAAAUGCAGUGACUAUUUUAUAUGGACAUGUGUCUUGAUUAUAUCUAUUAAGUGUGC | 0.457 |

Block 2
Target: CEP164, C-terminal peptide (human)
Technique: DHFR complementation, deep sequencing
Sample: yeast
Notes: single substitutions, model-inferred values
Relative to: wild type
Reading: higher = weaker binding
Parent: PDZK1, PDZ domain 2 (human); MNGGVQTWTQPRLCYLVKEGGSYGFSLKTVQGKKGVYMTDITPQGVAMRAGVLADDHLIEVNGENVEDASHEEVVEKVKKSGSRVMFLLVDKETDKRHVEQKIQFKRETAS; partner HNRVKVYRF
| Variant | binding free energy change [kcal/mol] |
| --- | --- |
| C14A | 0.0738 |
| Q31G | 0.16 |
| D56M | 0.0774 |
| D40K | 1.3 |
| V99C | -0.137 |
| M86N | -0.248 |
| Q104P | -0.231 |
| E73S | 0.0395 |

Block 3
Target: CCNA2, cyclin fold, Cln2 fusion (human)
Technique: yeast growth competition, sequencing
Sample: yeast
Notes: strong parent motif
Relative to: not given
Reading: higher = stronger binding
Parent: viral docking peptide; KGVKRKLFAEDSS
| Variant | normalised enrichment score |
| --- | --- |
| KGVKRKLFGEDSS [A9G] | 6.49 |
| KGVKDKLFAEDSS [R5D] | 0.326 |
| KGVKRKLFQEDSS [A9Q] | 6.37 |
| KGVKRKLYAEDSS [F8Y] | 3.35 |
| KGVKRKLFAQDSS [E10Q] | 5.4 |
| KGVKRKLRAEDSS [F8R] | 0.539 |
| KGVKRKLFAWDSS [E10W] | 4.76 |
| KGVKPKLFAEDSS [R5P] | 0.728 |
| KGVKRKLDAEDSS [F8D] | -0.197 |
| KGVVRKLFAEDSS [K4V] | 5.62 |
| KGVKRKLEAEDSS [F8E] | 0.481 |
| KGVKRKLFAGDSS [E10G] | 5.74 |
| KGVKRKLFSEDSS [A9S] | 6.53 |
| KVVKRKLFAEDSS [G2V] | 5.99 |
| KGVKRKLFAELSS [D11L] | 6.12 |
| KDVKRKLFAEDSS [G2D] | 6.27 |
| KGVKRKLFMEDSS [A9M] | 6.27 |
| KNVKRKLFAEDSS [G2N] | 6.41 |
| KGVNRKLFAEDSS [K4N] | 5.79 |
| KGVKRQLFAEDSS [K6Q] | 6.65 |
| KGVKRKLFAEFSS [D11F] | 6.37 |
| KGVKRKLFARDSS [E10R] | 4.72 |
| KGVKRKWFAEDSS [L7W] | 0.0874 |
| KGVKRDLFAEDSS [K6D] | 1.24 |
| KGVGRKLFAEDSS [K4G] | 3.55 |

Block 4
Target: TAR DNA-binding protein 43, full length, His tag (TARDBP, Homo sapiens, UniProt Q13148, residues 1-414)
Technique: RNA Bind-n-Seq
Form: RNA
Sample: in vitro
Tested at: 20 nM
Notes: 6-mer, flanks averaged, single round
Together with: 150 mM KCl
Relative to: input library
Reading: higher = stronger binding
| Oligonucleotide | 6-mer enrichment (R) |
| --- | --- |
| CCUUAG | 0.652 |
| ACUUGU | 0.615 |
| GAUUUG | 0.814 |
| GCAAUG | 0.982 |
| GUUCCG | 0.783 |
| CACGGG | 2.26 |
| GGUUCG | 1.46 |
| CCCAAA | 0.665 |

Mixed results
Parent: PafA, mature enzyme, eGFP fusion (Elizabethkingia meningoseptica, UniProt Q9KJX5); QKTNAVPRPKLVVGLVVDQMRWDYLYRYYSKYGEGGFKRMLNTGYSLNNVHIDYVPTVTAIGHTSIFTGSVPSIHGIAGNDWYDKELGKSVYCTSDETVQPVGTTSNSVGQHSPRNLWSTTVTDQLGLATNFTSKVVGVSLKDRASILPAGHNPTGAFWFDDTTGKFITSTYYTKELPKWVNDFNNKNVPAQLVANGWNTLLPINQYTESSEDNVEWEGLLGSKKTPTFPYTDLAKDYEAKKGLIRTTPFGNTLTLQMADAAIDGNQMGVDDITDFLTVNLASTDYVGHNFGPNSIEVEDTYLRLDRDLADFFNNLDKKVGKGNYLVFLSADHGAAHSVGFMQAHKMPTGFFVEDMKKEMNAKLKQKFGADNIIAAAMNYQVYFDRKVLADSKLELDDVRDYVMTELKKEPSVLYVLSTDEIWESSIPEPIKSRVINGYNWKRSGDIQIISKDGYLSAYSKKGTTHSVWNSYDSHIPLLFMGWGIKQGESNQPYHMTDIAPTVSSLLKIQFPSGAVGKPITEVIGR
| Variant | target | test | test system | setting | scale | quantity | result |
| --- | --- | --- | --- | --- | --- | --- | --- |
| T497G | tungstate, free oxyanion | microfluidic competitive inhibition | in vitro, cell-free expressed | not given, derived from inhibition constants, unchanged parent 2230 nM | lower = stronger binding | oxyanion analog dissociation constant | 2.48 µM |

Some of these lines once more (block 4):
| Oligonucleotide | 6-mer enrichment (R) |
| --- | --- |
| ACUUGU | 0.615 |
| CACGGG | 2.26 |
| CCUUAG | 0.652 |
| CCCAAA | 0.665 |
| GUUCCG | 0.783 |
